# Experimental data pooled from the literature.
# Numbered parts are unrelated; each lists some results of a single study. Changes are numbered by the printed parent chain.

# Sample 1 — technique: RNA Bind-n-Seq; form: RNA; medium: in vitro; concentration: not given; setting: RNA with constant flanks, ends assumed; baseline: input RNA pool; direction: higher = stronger binding
# Target: RING finger protein unkempt homolog, zinc fingers 1-6, GST-SBP tag (UNK, Homo sapiens, UniProt Q9C0B0, residues 30-357)
# Constant ends, left off below: GGGAGUUCUACAGUCCGACGAUC … CAACAGAGGAUUGAGCAUCA
# Residues (chain): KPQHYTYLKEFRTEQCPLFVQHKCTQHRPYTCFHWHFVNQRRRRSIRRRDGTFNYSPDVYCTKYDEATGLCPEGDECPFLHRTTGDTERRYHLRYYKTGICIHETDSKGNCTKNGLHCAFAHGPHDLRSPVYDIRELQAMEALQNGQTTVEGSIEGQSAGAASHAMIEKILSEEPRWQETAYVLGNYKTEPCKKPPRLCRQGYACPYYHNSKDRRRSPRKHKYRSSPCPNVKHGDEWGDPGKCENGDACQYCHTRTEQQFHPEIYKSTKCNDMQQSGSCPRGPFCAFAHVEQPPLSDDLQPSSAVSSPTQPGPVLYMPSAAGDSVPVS
Strand,bound/input enrichment [ratio]
GGCUCCCAUUGUCUCCGCAGAUGCCUCCUGGUCCUGCUACGGUGCUGGGGUUGUUCAGUUUCCGGGGACACGCUCCUAUUCUUUUCUUCGAGACGUCCCGCGGCCGAGAACGGGGUUCUA,0.086
GUAAAUUAAAAUAUAAAUUCAUAUAAAUUCUGAAACCCAUACUUGAACAAUGUGAGGAGACCGUUAAGGGGGAAAUCAAGGGUAAACUUGAUGUUUUCUACACAUGUUGACAGUAAGUGU,1.71
CAUGAGGAAAGAACAAUUCUCCCUAUGUCGAGAGCAUUCCGCGGUAAACACCUCUCUUUUGCCGUUCGAUUUCCAAACCAGGGCAGACAGGUUGAUGACUUGGAGGUAUGGUCUCAUACA,0.102
AUCAAGGGUGAAAUCCCAUUCUGCUAGCAAAAUGCAGUAUUCACACCACUGUGAGCACCUUUCCGAGAGACUGAAUAAGCAACGGGAAGCGGGAUUUCUUUGCGACUGUACCGUAGUGAU,0.229
AUGAACUUUCAGGCAACACUGUUAUUAAAUGACCCAGACAGACCUGUCCUUAUAUAAUUGCCGCUUUUCAGCACAAGGAUCCUAAAAGAUGGCAGCACCCACUUCUAAAAUCAUACUUGA,0.208
AAGUACUUAGCCCAGCUGCUGAACAGUGUACGGUUACCAUUGCUGAGCGUUAAGUUCCUCACCCGGCUCUAUGAAGCGAAUCAUCUUAUCCGUGAUGAUCGCACCUGUAAACAUCUCUUG,0.0994
ACUAACAAAAGUGCCUCAUCAUAAAAAUACAGUUGGUUUUUAGGGUGCCAUAUUGUUAAAAUCCGAUAACUUACUUACAUUGAAUAAACGAAUGCGUUUUAUUGGUAACAGAUAUCAUUA,0.147
AAUCACUUUGAAAUCCUCCCUCCUGAACUGGGUGACUGUCGGGCUCUGAAGCGAGCUGGUUCCGUUGCCGAAGAUGCUCUGUUUGAAACUCUGCCUUCUGACGUCCGGGAGCAAAUGAAA,0.335

# Sample 2 — technique: RNA Bind-n-Seq; form: RNA; medium: in vitro; concentration: 365 nM; baseline: no-protein control; direction: higher = stronger binding
# Target: RNA binding protein fox-1 homolog 2, RRM domain, GST-SBP tag (RBFOX2, Homo sapiens, UniProt O43251-10, residues 100-194)
# Setting: natural RNA segment, single round, ends assumed
# Constant ends, left off below: GGGAGUUCUACAGUCCGACGAUC … UGGAAUUCUCGGGUGCCAA
# Construct (chain): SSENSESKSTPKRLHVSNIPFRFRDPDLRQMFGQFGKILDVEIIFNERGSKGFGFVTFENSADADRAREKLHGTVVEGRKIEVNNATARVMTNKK
Strand,RBNS enrichment (R)
AAAAGUGUGUCAGGGCAAGCAGACAACACAAUUUCCUAUCAGAAUAUGUCCCUCAACCCCCGAAACAAGGCUUCUCUCAGCCUCCCCACCAGUGAUGGAUAACAGCUCCU,0.518
AGAGGAGAAUGUGAGCACAUUUGACUGACACGGCCUGGAACCCAGUGCAUCUUUUCACGGCACUGCCGAGACGUACUCCCUGGUGUUGCCGCUCACAGGCCCUCAGCUGU,7.22
AAGCCUUUCUACUUGUGGGUGCAAUAGAUUCCUUCUUUUUCCUUUGCAGUGUCAUCUUGAUUGUAUAUUGAAAAUACUGUGUAAUGAUGAAAUCAUAUUAUAAAUAUUUC,0.572
CUACCAUUGGGAACACAAGGGGCCCCUGAGGGGCCUCCACCUCACUGCCUUAAGUGAGUCCCGCCCACUCCCUGCCUCCCUCCGAGGUGGGCGGGAGUUCCUACCCCAUC,0.371
GGCCAAGGAAUCCCGCAAUGUCACUAUGGAAACAGAUGAAUGGUUUGACAUGAAGACGACUGUUCCGUUAUUGGGAAGUAAUCAGCUUUUGAAACUGAGAGUGUUGGGAA,7.02
CAUCGAGGGUUCUGAGAGUGACUUUUCUCUGUUGGGUGCUUUCUUUGCCACCCUCAUAGCUUUCCCACAUCUUGUAGGUGCCAUAUACAAUGCCUUAAUGUAAUUAGCCU,0.289
CUAGUGUUUCACAUAAAAAUACUUCUGACAUAAAGUACCAAGAGCAGUGUGAAUAUACUUGGCAUAGUCAAAAAAGAAAAUACAUUUAAUAUUAGUUCAAAAUUGUUAAA,0.54
UUGGAAAAAAGGCACAGCAAAUAUCAAAUUUUCUCAACUAAUACUAAAGAAGAGACUACAUUAUUUAUUUUUUAAAUUAAGCCUUCAAUAAUAAAGUGAGUAUACAAAUU,0.776

# Sample 3 — target: CCNB2, cyclin fold, Cln2 fusion (human); technique: yeast growth competition, sequencing; medium: yeast; setting: weak parent motif; baseline: not given; direction: higher = stronger binding
# Starting sequence: SCAPER docking peptide (human); SNARRSLNFGGST; partner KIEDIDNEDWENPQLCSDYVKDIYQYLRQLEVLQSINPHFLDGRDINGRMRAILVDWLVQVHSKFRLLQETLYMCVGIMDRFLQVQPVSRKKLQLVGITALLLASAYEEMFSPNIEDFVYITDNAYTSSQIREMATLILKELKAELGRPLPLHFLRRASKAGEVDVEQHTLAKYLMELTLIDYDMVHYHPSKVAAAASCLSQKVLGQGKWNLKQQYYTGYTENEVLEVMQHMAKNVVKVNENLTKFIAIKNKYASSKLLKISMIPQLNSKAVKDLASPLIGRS
Change,normalised enrichment score
R4V,-0.0407
S1A,0.38
G11Q,0.0614
G10A,0.29
S1R,0.204
N2P,0.0798
R5G,-0.439
N2L,-0.217
T13G,0.216
G11M,0.221
G11L,0.267
G11A,0.0442
F9Y,-0.105
S12R,-0.15
L7I,0.108
N8T,0.245
N8D,-0.104
S12C,-0.0795
S12M,-0.65

# Sample 4 — technique: DHFR PCA, deep sequencing; medium: yeast; together with: (+)-ABA 0.11 µM; baseline: wild-type fitted maximum; direction: higher = stronger binding
# Target: ABI1, truncated, D143A, DHFR fusion (Arabidopsis thaliana)
# Setting: methotrexate growth selection, single substitutions
# Starting sequence: PYL1, truncated, DHFR fusion (Arabidopsis thaliana); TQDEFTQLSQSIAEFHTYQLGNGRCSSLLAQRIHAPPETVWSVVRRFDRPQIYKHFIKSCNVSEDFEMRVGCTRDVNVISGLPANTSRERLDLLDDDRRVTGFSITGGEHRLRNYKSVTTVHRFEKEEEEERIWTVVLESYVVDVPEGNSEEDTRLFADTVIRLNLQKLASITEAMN
Change,relative binding score [%]
S63P,45.3
M68N,13.8
E129L,17.7
S11K,3.19
T86E,-3.17
P36S,27.3
E139Y,10.3
V118C,16.5
P83N,11.5
Q2W,56.4
H55R,39.7
Y53L,-0.405
P36F,-0.834
A84P,27.3
L156D,2.99
L20F,15.2
E130Q,35.1
T135G,-1.64
T120R,-3.43

# Sample 5 — target: JUND, bZIP domain (human); technique: DHFR protein complementation; medium: yeast; baseline: wild-type JUN-FOS pair; direction: higher = stronger binding
# Setting: single substitutions, most at no-binding floor
# Starting sequence: JUN, bZIP domain (human); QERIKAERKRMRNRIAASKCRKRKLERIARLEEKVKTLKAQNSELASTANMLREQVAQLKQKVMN
Change,binding fitness
L59W,-1.27 natural log
L31T,-1.39 natural log
L52E,-1.5 natural log
T48W,-1.34 natural log
L52P,-1.39 natural log
E32P,-1.46 natural log
R53C,-1.39 natural log
L45Y,-1.33 natural log
E33V,-1.21 natural log
L38W,-1.42 natural log
E54W,-1.3 natural log

# Repeated from above (sample 4):
Change,relative binding score [%]
Q2W,56.4
H55R,39.7
Y53L,-0.405
P36F,-0.834
A84P,27.3
L156D,2.99
L20F,15.2
